Measurements collected from several papers.
Numbered parts are unrelated; each lists some results of a single study.
UniProt Q96RR4, sequence (whole entry, looked up): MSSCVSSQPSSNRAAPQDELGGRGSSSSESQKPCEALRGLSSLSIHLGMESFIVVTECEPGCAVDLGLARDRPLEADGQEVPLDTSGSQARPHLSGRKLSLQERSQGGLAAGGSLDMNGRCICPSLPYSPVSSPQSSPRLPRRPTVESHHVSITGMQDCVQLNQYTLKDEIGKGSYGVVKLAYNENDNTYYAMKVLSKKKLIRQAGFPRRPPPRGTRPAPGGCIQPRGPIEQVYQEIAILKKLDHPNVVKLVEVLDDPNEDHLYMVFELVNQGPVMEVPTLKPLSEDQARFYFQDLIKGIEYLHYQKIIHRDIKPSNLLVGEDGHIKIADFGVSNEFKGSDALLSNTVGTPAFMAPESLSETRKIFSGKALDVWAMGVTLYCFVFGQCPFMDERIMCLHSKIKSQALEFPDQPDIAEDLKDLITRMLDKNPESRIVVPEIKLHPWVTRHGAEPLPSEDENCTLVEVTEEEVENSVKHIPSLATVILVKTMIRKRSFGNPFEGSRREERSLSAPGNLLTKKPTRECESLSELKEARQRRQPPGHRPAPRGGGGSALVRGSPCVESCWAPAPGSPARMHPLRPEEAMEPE
UniProt P57059, sequence (whole entry, looked up): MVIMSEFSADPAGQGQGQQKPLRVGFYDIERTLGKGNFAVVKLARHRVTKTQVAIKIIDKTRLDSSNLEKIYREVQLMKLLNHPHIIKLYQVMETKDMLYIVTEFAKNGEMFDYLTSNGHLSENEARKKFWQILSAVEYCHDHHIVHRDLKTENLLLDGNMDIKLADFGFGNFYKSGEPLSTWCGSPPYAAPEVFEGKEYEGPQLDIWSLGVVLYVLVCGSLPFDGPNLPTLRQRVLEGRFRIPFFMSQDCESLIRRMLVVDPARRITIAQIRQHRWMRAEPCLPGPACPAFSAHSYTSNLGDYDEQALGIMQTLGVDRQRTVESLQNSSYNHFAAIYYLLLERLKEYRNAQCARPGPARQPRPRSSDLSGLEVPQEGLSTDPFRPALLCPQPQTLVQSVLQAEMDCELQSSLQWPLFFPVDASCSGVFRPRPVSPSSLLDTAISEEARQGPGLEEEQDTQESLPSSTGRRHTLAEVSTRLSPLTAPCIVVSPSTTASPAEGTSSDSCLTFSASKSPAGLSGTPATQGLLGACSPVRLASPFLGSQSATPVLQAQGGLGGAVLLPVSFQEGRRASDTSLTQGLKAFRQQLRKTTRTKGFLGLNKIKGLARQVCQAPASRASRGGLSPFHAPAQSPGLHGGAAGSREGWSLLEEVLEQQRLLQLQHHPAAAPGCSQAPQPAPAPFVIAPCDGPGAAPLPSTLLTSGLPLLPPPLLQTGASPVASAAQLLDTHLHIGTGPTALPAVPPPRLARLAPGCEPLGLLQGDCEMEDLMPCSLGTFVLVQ
UniProt P51957, sequence (whole entry, looked up): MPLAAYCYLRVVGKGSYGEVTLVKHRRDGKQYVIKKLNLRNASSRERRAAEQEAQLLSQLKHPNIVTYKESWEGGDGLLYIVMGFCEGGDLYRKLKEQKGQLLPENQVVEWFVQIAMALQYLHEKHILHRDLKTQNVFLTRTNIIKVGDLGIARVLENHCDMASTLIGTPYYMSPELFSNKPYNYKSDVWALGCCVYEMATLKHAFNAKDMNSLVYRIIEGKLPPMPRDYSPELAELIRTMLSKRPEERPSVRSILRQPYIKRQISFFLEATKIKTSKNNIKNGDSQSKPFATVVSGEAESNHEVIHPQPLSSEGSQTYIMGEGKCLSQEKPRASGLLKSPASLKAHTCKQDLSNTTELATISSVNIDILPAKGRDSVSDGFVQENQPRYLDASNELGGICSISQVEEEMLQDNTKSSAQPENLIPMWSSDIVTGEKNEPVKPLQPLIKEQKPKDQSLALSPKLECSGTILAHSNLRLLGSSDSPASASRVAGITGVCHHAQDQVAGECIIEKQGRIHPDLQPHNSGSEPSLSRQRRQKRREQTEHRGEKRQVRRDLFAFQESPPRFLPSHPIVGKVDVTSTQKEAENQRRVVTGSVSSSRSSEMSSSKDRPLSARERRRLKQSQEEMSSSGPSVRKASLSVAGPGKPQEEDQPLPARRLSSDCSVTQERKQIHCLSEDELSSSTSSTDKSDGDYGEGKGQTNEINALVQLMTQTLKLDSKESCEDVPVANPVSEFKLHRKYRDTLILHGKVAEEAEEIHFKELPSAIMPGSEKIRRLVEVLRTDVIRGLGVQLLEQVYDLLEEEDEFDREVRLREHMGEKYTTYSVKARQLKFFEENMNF
UniProt O43293, sequence (whole entry, looked up): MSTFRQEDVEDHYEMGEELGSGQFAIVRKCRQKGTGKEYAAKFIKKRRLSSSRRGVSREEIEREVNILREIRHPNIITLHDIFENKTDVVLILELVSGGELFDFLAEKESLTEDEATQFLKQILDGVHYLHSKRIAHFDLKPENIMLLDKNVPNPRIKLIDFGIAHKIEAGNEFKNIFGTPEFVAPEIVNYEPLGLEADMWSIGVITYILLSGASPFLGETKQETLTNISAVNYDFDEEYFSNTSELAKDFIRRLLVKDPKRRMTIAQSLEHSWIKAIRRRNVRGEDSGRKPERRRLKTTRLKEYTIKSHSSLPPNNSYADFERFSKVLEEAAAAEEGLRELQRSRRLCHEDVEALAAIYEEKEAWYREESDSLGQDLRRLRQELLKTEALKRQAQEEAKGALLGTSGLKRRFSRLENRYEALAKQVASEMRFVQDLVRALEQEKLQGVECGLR
UniProt P51812, sequence (whole entry, looked up): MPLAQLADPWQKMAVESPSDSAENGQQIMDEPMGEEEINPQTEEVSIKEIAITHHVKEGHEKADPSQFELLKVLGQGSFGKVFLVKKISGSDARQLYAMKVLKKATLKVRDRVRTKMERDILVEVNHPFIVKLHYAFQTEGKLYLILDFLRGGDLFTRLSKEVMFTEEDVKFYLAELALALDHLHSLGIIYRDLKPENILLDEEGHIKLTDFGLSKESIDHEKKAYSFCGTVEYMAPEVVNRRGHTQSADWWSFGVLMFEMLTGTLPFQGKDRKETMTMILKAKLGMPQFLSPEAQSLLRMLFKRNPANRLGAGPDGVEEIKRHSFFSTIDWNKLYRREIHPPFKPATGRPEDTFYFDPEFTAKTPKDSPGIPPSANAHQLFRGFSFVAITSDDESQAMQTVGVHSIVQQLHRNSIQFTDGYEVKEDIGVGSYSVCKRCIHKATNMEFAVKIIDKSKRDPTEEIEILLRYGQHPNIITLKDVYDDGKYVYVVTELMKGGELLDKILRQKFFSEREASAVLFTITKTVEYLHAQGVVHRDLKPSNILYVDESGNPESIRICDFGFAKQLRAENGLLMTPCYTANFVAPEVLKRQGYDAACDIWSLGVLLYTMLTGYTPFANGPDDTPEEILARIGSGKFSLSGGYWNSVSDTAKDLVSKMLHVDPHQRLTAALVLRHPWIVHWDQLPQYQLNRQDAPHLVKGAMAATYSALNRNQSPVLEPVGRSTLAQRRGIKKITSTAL
UniProt Q9BUB5, sequence (whole entry, looked up): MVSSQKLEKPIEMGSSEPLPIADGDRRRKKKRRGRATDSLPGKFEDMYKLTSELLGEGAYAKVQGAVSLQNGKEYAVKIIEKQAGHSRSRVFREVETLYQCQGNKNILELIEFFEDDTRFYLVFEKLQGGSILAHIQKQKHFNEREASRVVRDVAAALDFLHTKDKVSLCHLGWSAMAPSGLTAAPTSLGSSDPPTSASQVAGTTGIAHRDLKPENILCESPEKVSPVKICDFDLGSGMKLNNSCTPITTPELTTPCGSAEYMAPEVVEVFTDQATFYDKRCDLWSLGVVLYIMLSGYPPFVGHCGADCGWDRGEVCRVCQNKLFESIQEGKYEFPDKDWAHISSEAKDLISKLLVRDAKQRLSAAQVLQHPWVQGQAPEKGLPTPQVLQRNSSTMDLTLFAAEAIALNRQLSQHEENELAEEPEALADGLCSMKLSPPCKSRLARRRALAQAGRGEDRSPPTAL
UniProt O94921, sequence (whole entry, looked up): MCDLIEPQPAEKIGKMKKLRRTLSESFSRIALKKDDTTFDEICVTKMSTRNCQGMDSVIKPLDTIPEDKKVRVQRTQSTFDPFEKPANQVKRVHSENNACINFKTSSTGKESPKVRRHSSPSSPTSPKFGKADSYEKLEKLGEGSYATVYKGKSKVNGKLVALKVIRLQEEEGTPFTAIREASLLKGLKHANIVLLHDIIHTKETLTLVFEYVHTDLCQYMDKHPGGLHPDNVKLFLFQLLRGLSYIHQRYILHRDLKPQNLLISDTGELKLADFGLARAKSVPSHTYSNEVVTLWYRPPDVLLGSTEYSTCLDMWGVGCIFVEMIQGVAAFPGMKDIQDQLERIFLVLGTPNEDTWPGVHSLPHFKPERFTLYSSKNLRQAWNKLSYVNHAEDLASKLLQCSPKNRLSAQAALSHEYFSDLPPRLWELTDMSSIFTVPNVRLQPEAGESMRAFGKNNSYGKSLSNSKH

Block 1
Cell line: A-375
Tested at: 100 µM
Time: 18 h
Endpoint: viability
Compound = N[C@@H](CSCCCO)C(=O)O; value = 108%
Compound = CCN(CC)CCNC(=O)c1cc(S(C)(=O)=O)ccc1OC; value = 90.9%
Compound = O=C1CN2Cc3c(ccc(Cl)c3Cl)N=C2N1; value = 94.3%
Compound = CN(C)CC/C=C1/c2ccccc2COc2ccc(CC(=O)O)cc21; value = 106%
Compound = CCn1nc(C(=O)O)c(=O)c2cc3c(cc21)OCO3; value = 81.2%
Compound = CC(C[N+](C)(C)C)OC(N)=O (centres unmarked); value = 98.1%
Compound = COc1ncnc(NS(=O)(=O)c2ccc(N)cc2)c1OC; value = 78.4%
Compound = Cc1cc(/C=C/C#N)cc(C)c1Nc1ccnc(Nc2ccc(C#N)cc2)n1; value = 15.3%

Block 2
Target: Serine/threonine-protein kinase 16 (STK16, Homo sapiens, UniProt O75716)
UniProt O75716, sequence (whole entry, looked up): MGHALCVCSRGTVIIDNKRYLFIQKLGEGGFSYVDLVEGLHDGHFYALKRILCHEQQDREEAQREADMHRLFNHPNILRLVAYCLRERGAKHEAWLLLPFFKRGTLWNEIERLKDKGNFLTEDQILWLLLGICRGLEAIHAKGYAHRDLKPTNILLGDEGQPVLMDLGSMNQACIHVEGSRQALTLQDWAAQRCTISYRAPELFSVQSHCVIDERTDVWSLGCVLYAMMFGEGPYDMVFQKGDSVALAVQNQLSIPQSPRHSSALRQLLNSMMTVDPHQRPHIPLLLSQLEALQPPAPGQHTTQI
Effect on: enzyme activity
Action: inhibitor
Tested at: 0.5 µM
Relative to: control
Endpoint: remaining activity
SMILES = CCN(CC)CCNC(=O)c1c(C)[nH]c(/C=C2\C(=O)Nc3ccc(Cl)cc32)c1C; value = 72.9%
SMILES = O=C1c2ccccc2-c2n[nH]c3cccc1c23; value = 69.1%
SMILES = Nc1cccc(-c2cc3c(Oc4cccc(O)c4)ncnc3[nH]2)c1; value = 70.4%
SMILES = CN(C)C[C@H]1CCn2c(c(C3=C(c4cn(C)c5ccccc45)C(=O)NC3=O)c3ccccc32)C1; value = 109%
SMILES = CCN(CC)C(=O)c1ccc(Nc2nc(OCC3CCCCC3)c3[nH]cnc3n2)cc1; value = 33.6%
SMILES = N#C/C(=C\c1ccc(O)c(O)c1)C(=O)NCc1ccccc1; value = 99.1%
SMILES = COc1cc2ncnc(Nc3ccc(O)c(Br)c3)c2cc1OC; value = 104%
SMILES = COc1cc2ncnc(Nc3cccc(Cl)c3)c2cc1OC; value = 101%
SMILES = COc1cc2c(cc1OC)-c1[nH]nc(Nc3cccc(F)c3)c1C2; value = 96.8%
SMILES = c1ccc(-c2[nH]ncc2-c2ccnc3ccccc23)nc1; value = 100%
SMILES = O=C1C(Cl)=C(N2C(=O)CCC2=O)C(=O)c2ccccc21; value = 100%
SMILES = Cc1cn(-c2cc(NC(=O)c3ccc(C)c(Nc4nccc(-c5cccnc5)n4)c3)cc(C(F)(F)F)c2)cn1; value = 93.4%
SMILES = Cc1nc2cc3nc(-c4cccs4)cnc3cc2n1C; value = 95.2%
SMILES = CN([C@@H](Cc1ccc(OS(=O)(=O)c2cccc3cnccc23)cc1)C(=O)N1CCN(c2ccccc2)CC1)S(=O)(=O)c1cccc2cnccc12; value = 104%
SMILES = Cc1cc2ncc(-c3ccccc3)nc2cc1C; value = 108%
SMILES = O=c1cc(-c2cccc3c2Sc2ccccc2S3)oc(N2CCOCC2)c1; value = 95.5%
SMILES = N#Cc1c(NC(=O)c2cccc3ccccc23)sc2c1CCCC2; value = 98.5%
SMILES = CCN(CC)CCNC(=O)c1c(C)[nH]c(/C=C2\C(=O)Nc3ccc(F)cc32)c1C; value = 55.7%
SMILES = c1ccc(-c2cnc(Nc3ccc(OCCN4CCCC4)cc3)s2)cc1; value = 92%
SMILES = CCOc1nc(NC(=O)Cc2cc(OC)ccc2OC)cc(N)c1C#N; value = 94.1%

Block 3
Organism: Sarcocystis neurona
Effect on: parasite growth
Tested at: 10 µM
Setting: secondary screen
Endpoint: inhibition
SMILES = CC(C)(C)NC(=O)[C@H]1CC[C@H]2[C@@H]3CC[C@H]4NC(=O)C=C[C@]4(C)[C@H]3CC[C@]12C; value = -4.4%
SMILES = Cc1cnc(NC(=O)C2=C(O)c3ccccc3S(=O)(=O)N2C)s1; value = -36%
SMILES = CCCc1nc(C(C)(C)O)c(C(=O)OCc2oc(=O)oc2C)n1Cc1ccc(-c2ccccc2-c2nnn[nH]2)cc1; value = 1.2%
SMILES = CC(=O)O[C@]1(C(C)=O)CC[C@H]2[C@@H]3C=C(C)C4=CC(=O)CC[C@]4(C)[C@H]3CC[C@@]21C; value = -7.9%

Block 4
SMILES: Cc1cc(-n2nc(Cc3cc(F)cc(C(F)(F)F)c3)nc2C)ccc1C(N)=O
Tested at: 1 µM
Endpoint: remaining binding
target = Dual specificity protein kinase CLK2 (CLK2, Homo sapiens, UniProt P49760); assay = cell-free assay, competition with immobilised ligand; value = 94%
target = Calcium/calmodulin-dependent protein kinase kinase 2 (CAMKK2, Homo sapiens, UniProt Q96RR4); assay = cell-free assay, competition with immobilised ligand; value = 100%
target = Proto-oncogene tyrosine-protein kinase receptor Ret (RET, Homo sapiens, UniProt P07949, M918T); assay = cell-free assay, competition with immobilised ligand; value = 100%
target = Tyrosine-protein kinase Lyn (LYN, Homo sapiens, UniProt P07948); assay = cell-free assay, competition with immobilised ligand; value = 100%
target = Serine/threonine-protein kinase RIO3 (RIOK3, Homo sapiens, UniProt O14730); assay = cell-free assay, competition with immobilised ligand; value = 100%
target = MAP kinase-interacting serine/threonine-protein kinase 1 (MKNK1, Homo sapiens, UniProt Q9BUB5); assay = cell-free assay, competition with immobilised ligand; value = 100%
target = Cyclin-dependent kinase 14 (CDK14, Homo sapiens, UniProt O94921); assay = cell-free assay, competition with immobilised ligand; value = 100%
target = Receptor-type tyrosine-protein kinase FLT3 (FLT3, Homo sapiens, UniProt P36888, K663Q); assay = cell-free assay, competition with immobilised ligand; value = 100%
target = Serine/threonine-protein kinase SIK1 (SIK1, Homo sapiens, UniProt P57059); assay = competition binding; value = 100%
target = Serine/threonine-protein kinase PAK 1 (PAK1, Homo sapiens, UniProt Q13153); assay = cell-free assay, competition with immobilised ligand; value = 95%
target = Death-associated protein kinase 3 (DAPK3, Homo sapiens, UniProt O43293); assay = cell-free assay, competition with immobilised ligand; value = 87%
target = Ribosomal protein S6 kinase alpha-3, C-terminal kinase domain (RPS6KA3, Homo sapiens, UniProt P51812); assay = cell-free assay, competition with immobilised ligand; value = 100%
target = Serine/threonine-protein kinase Nek4 (NEK4, Homo sapiens, UniProt P51957); assay = cell-free assay, competition with immobilised ligand; value = 100%
target = Receptor-type tyrosine-protein kinase FLT3 (FLT3, Homo sapiens, UniProt P36888, ITD); assay = cell-free assay, competition with immobilised ligand; value = 100%
target = Tyrosine-protein kinase ABL1, phosphorylated (ABL1, Homo sapiens, UniProt P00519, Y253F); assay = cell-free assay, competition with immobilised ligand; value = 90%

Some of these lines once more (block 2):
SMILES = Nc1cccc(-c2cc3c(Oc4cccc(O)c4)ncnc3[nH]2)c1; value = 70.4%
SMILES = CN(C)C[C@H]1CCn2c(c(C3=C(c4cn(C)c5ccccc45)C(=O)NC3=O)c3ccccc32)C1; value = 109%
SMILES = CCN(CC)C(=O)c1ccc(Nc2nc(OCC3CCCCC3)c3[nH]cnc3n2)cc1; value = 33.6%
